Published values from different studies.
Lines come from different studies, so protocols differ. ± marks the error that the study gave.
GRM2: Metabotropic glutamate receptor 2 (GRM2, Homo sapiens, UniProt Q14416)
Chain of UniProt Q14416 (whole entry, looked up): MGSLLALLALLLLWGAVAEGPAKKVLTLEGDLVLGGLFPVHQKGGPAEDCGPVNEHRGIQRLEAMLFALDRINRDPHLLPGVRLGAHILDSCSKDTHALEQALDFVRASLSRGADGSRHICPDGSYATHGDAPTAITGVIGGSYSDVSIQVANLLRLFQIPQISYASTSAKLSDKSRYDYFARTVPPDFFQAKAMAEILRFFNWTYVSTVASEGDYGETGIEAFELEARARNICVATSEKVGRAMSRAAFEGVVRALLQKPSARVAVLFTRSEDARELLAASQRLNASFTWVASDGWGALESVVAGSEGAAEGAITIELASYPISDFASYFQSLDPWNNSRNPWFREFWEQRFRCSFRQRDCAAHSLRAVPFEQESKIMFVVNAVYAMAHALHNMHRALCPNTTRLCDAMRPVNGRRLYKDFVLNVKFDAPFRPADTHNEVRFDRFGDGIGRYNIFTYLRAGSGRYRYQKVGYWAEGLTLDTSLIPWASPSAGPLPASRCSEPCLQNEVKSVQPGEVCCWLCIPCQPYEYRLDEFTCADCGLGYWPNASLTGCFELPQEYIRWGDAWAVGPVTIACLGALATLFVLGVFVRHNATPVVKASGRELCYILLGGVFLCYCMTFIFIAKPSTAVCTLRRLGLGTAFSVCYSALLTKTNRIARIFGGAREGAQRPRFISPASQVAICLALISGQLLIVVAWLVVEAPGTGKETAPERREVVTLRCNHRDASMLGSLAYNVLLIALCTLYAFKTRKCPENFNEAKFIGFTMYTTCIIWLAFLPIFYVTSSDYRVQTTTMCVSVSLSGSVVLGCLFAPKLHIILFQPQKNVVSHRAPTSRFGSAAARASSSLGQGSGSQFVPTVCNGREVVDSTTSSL
Chain of UniProt Q9HC97 (whole entry, looked up): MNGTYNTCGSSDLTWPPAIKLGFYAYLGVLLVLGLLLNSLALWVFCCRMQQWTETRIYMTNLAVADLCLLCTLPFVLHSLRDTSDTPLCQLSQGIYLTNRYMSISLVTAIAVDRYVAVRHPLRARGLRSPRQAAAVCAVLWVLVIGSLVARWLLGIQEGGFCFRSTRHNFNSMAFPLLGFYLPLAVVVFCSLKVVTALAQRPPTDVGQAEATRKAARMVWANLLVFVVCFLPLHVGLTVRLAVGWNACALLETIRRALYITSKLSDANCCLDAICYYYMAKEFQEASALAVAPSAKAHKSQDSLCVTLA
Chain of UniProt Q9ESK4 (whole entry, looked up): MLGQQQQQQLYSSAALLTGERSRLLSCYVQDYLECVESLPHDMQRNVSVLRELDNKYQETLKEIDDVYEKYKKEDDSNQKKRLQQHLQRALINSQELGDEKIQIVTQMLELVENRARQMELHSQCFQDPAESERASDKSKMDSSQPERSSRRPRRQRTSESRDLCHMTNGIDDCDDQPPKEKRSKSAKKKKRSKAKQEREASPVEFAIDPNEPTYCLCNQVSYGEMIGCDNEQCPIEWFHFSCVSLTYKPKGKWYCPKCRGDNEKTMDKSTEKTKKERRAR
Chain of UniProt P54764 (whole entry, looked up): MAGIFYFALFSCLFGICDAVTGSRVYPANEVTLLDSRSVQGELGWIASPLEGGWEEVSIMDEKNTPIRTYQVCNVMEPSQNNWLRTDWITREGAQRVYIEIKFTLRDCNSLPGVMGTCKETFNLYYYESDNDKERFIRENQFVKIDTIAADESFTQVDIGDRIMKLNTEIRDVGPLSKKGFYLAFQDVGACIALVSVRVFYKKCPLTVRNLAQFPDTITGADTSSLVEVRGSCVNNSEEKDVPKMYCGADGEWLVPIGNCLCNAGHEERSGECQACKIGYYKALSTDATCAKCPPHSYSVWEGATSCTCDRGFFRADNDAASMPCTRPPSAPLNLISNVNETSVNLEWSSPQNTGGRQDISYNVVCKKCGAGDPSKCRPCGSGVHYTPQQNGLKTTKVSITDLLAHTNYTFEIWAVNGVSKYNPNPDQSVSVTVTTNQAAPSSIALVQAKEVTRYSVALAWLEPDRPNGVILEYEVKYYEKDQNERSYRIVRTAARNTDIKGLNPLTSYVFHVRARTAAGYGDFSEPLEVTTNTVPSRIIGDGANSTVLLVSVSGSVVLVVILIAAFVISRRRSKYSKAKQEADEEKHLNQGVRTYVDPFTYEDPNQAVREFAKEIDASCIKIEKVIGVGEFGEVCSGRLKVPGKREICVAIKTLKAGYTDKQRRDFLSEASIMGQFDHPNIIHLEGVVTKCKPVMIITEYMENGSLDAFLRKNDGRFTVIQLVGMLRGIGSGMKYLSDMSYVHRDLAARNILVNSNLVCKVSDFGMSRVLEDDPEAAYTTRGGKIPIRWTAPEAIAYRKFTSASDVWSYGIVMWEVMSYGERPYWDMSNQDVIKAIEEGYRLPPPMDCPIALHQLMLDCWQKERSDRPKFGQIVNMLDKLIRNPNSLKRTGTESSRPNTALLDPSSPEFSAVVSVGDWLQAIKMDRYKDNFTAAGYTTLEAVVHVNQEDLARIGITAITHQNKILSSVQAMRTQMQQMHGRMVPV

Molecule	tested on	assay	test system	conditions	how to read	measurement	result
O=C(O)CCCCCCC(=O)OCn1cc(F)c(=O)[nH]c1=O	Caco-2 butyrate-induced	–	–	with: MCT1 inhibitor 2.5 mM	relative to: without inhibitor	fold decrease in uptake	48.2 fold
meglumine antimoniate	Leishmania major	annexin V/PI flow cytometry	promastigote	IC50	–	apoptotic cells	30.1%
CCCCn1ccn2c(-c3ccc(Oc4ccccc4)cc3)c(C)nc2c1=O	GRM2	GTPγS binding, positive allosteric modulator	–	with: EC20 glutamate	–	EC50	0.015 µM
COC(=O)c1cnn(-c2ccc(F)cc2F)c1C=NNC(=S)NC(C)(C)C	GPR35 (Homo sapiens, UniProt Q9HC97)	dynamic mass redistribution, antagonist	HT-29	with: rT3 16 µM	–	IC50	2.84 ± 0.23 µM
CCCC(CCC)C(=O)O	–	–	mouse, pilocarpine-induced seizures	oral, 300 mg/kg, 30 min after pilocarpine	direction not given	Racine score	2.1 ± 0.57
CC(=O)N[C@@H](Cc1c[nH]c2ccccc12)C(=O)N[C@@H](CCC(=O)C=[N+]=[N-])C(=O)OC(C)C	–	–	C57BL/6 CES1-/- mouse plasma	20 µM, 60 min, 37 °C	–	remaining compound	> 90%
CCCCn1ccn2c(-c3ccc4c(ccn4-c4cccnc4)c3)c(C)nc2c1=O	GRM2	GTPγS binding, positive allosteric modulator	–	with: EC20 glutamate	–	EC50	0.059 µM
APYCVYRASWSCGGKG (designed peptide; β-Ala1, β-Ala8, lauric acid on C-terminal Lys, disulfide cyclic)	EPHA4 20-547 (Homo sapiens, UniProt P54764)	competition with ligand, competitor, ELISA	peptide	pH 7.5, NaCl 150 mM, with: ephrin-A5 0.05 nM	–	IC50	0.025 µM
CCCCc1oc2ccccc2c1C(=O)c1cc(I)c(OCCN)c(I)c1	Inhibitor of growth protein 2, PHD finger (Ing2, Mus musculus, UniProt Q9ESK4)	fluorescence polarization	–	–	–	IC50	97 ± 41 µM

A few entries again:
Molecule	tested on	assay	test system	conditions	how to read	measurement	result
meglumine antimoniate	Leishmania major	annexin V/PI flow cytometry	promastigote	IC50	–	apoptotic cells	30.1%
